# Published values from different studies.
# Several values in a cell are separate wells, animals, samples, runs or records.
SMILES,test system,setting,quantity,value
CCN(CC)c1ccc2c(c1)O[B-]1(c3ccc(C)cc3)OC(=O)C(c3ccccc3)=N[N+]1=C2 (stereo not shown),toluene,,absorption maximum,471 nm
C=C[C@]1(C)C[C@@H](OC(=O)CSc2ccc(NC(=O)c3ccco3)cc2)[C@]2(C)[C@H](C)CC[C@]3(CCC(=O)[C@H]32)[C@@H](C)[C@@H]1O,"chicken, Mycoplasmoides gallisepticum infected, plasma","intramuscular, 80 mg/kg",absorption half-life,5.77 min and 6 min
CC(C)(C)NC(=O)C1CCN(Cc2cccc(/N=N/c3ccc(F)cc3F)c2)CC1,DMSO,"25 µM, 25 °C","absorption maximum, cis isomer",432 nm
COc1ccc2nc(-c3ccc(N(C)C)cc3)sc2c1,PBS,free dye,absorption maximum wavelength,301 nm
CC(C)(C)NC(=O)C1CCN(Cc2cccc(N=Nc3ccc(F)cc3)c2)CC1,DMSO,"25 µM, 25 °C","absorption maximum, trans isomer",330 nm
C=Cc1ccccc1[B-]12OC(=O)C(c3ccccc3)=N[N+]1=C(CC)c1ccc(N(CC)CC)cc1O2 (stereo not shown),toluene,,absorption maximum,470 nm
CCCCN1C(=O)c2cccc3c(NCCCCCCCCCCN4CCOCC4)ccc(c23)C1=O,acetonitrile,,absorption maximum,433 nm
C=Cc1ccc([B-]23OC(=O)C(c4ccccc4)=N[N+]2=Cc2ccc(N(CC)CC)cc2O3)cc1 (stereo not shown),toluene,,absorption maximum,473 nm
CCCCN1C(=O)c2cccc3c(NCCCCCN4CCOCC4)ccc(c23)C1=O,ethyl acetate,,absorption maximum,428 nm
CCN(CC)c1ccc2c(c1)O[B-]1(c3ccccc3OC)OC(=O)C(c3ccccc3)=N[N+]1=C2 (stereo not shown),toluene,,absorption maximum,464 nm
CCCCN1C(=O)c2cccc3c(NCCCCCCCCN4CCOCC4)ccc(c23)C1=O,dichloromethane,,absorption maximum,428 nm
CC(C)(C)NC(=O)C1CCN(Cc2cccc(/N=N/c3ccc(F)c(F)c3F)c2)CC1,DMSO,"25 µM, 25 °C","absorption maximum, cis isomer",431 nm
CCCCN1C(=O)c2cccc3c(NCCCCCCN4CCOCC4)ccc(c23)C1=O,DMSO,,absorption maximum,446 nm
CC1(C)C(=CC=C2CCCC(C=CC3=[N+](CCC[N+](C)(C)C)c4ccc(S(=O)(=O)O)cc4C3(C)C)=C2SCCOCCOCCC(=O)O)N(CCC[N+](C)(C)C)c2ccc(S(=O)(=O)O)cc21,HEPES buffer with FBS,"pH 7.4, 50 mM HEPES, 30% FBS",absorption maximum wavelength,778 nm
CCCCN1C(=O)c2cccc3c(NCCCN4CCOCC4)ccc(c23)C1=O,acetonitrile,,absorption maximum,434 nm
C=Cc1cccc([B-]23OC(=O)C(c4ccccc4)=N[N+]2=Cc2ccc(N(CC)CC)cc2O3)c1 (stereo not shown),toluene,,absorption maximum,472 nm
